# Results gathered from unrelated publications.
# A part holds a random share of what one study measured. Positions count from the first letter of the parent shown.
# Chain of UniProt P28221 (whole entry, looked up): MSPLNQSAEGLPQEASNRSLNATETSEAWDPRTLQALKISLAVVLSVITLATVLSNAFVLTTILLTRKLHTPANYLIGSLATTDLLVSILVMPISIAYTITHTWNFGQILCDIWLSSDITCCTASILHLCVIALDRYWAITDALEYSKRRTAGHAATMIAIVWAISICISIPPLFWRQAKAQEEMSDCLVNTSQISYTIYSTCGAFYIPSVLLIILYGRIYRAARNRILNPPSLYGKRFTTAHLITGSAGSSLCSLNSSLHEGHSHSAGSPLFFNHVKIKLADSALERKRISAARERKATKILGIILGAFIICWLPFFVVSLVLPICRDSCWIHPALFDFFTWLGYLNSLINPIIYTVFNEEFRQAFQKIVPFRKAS

# Set 1
# Target: CCNE2, cyclin fold, Cln2 fusion (human)
# Technique: yeast growth competition, sequencing
# Matrix: yeast
# Notes: strong parent motif
# Reference: not given
# Direction: higher = stronger binding
# Starting sequence: viral docking peptide; KGVKRKLFAEDSS
Variant,normalised enrichment score
KGVKKKLLAEDSS [R5K F8L],0.469
KGVKRDLFAEDSS [K6D],0.548
KGVKRKLFAEHSS [D11H],6.12
KGVKRKLNAEDSS [F8N],0.0922
KGVKRKLFAEDSA [S13A],6.3
KGVKRKLSAEDSS [F8S],-0.118
KGAKRKLFAEDSS [V3A],5.56
KGVKRKLHAEDSS [F8H],0.0684

# Set 2
# Target: UBE2D2 UBC core domain (UniProt P62837)
# Chain of UniProt P62837 (whole entry, looked up): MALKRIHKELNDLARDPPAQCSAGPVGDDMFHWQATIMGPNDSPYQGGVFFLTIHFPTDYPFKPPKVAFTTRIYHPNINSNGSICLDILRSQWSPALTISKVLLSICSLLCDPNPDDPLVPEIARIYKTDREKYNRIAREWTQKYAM
# Technique: yeast two-hybrid
# Matrix: yeast
# Notes: mostly zero background
# Reference: not given
# Direction: higher = stronger interaction
# B1: DZIP3 RING domain (UniProt Q86Y13); chain PDEEEEEEEPCVICHENLSPENLSVLPCAHKFHAQCIRPWLMQQGTCPTCRLHVLLPEEFP
# B2: RNF133 RING domain (UniProt Q8WVZ7); chain DEEINPNGDSCVICFERYKPNDIVRILTCKHFFHKNCIDPWILPHGTCPICKCDILKVLGIQ
# B3: RFWD3 RING domain (UniProt Q6PCD5); chain ASMDEEEGDTCTICLEQWTNAGDHRLSALRCGHLFGYRCISTWLKGQVRKCPQCNKKARHSDIVV
# B4: ZMIZ2 RING domain (UniProt Q8NF64); chain GTIPGTPGPNGEDGVEQTAIKVSLKCPITFRRIQLPARGHDCRHIQCFDLESYLQLNCERGTWRCPVCNKTALLEGLEVDQYMLGILIYIQNSDYEEITIDPTCSWK
# B5: MDM4 RING domain (UniProt O15151); chain MEDCQNLLKPCSLCEKRPRDGNIIHGRTGHLVTCFHCARRLKKAGASCPICKKEIQLVIKVF
# B6: RNF19A RING domain (UniProt Q9NV58); chain ISKQIGDFIECPLCLLRHSKDRFPDIMTCHHRSCVDCLRQYLRIEISESRVNISCPECTERFNPHDIR
Sequence,lacZ reporter activity
B1 (DZIP3 RING domain),0
GSRLQEINDVCAICYHEFTTSARITPCNHYFHALCLRKWLYIQDTCPMCHQKVYIEDDIK (RNF139 RING domain (UniProt Q8WU17)),0
B2 (RNF133 RING domain),18000
KLRKLKEAMLCMVCCEEEINSTFCPCGHTVCCESCAAQLQSCPVCRSRVEHVQHVY (MYLIP RING domain (UniProt Q8WY64)),0
B3 (RFWD3 RING domain),11300
B4 (ZMIZ2 RING domain),0
B5 (MDM4 RING domain),0
B6 (RNF19A RING domain),0

# Further values, each from its own experiment
# HLA class I histocompatibility antigen, B alpha chain allele B*51:01: HLA class I histocompatibility antigen, B alpha chain, allele B*51:01 (Homo sapiens, UniProt P01889)
Substance,target or system,assay,system,setting,scale,endpoint,result
CNC(=N)NCCC[C@H](NC(=O)[C@H](CC(C)C)NC(=O)NNC(=O)[C@H](Cc1ccccc1)NC(=O)[C@H](CO)NC(=O)[C@H](CC(N)=O)NC(=O)[C@@H](Cc1ccncc1)NC(=O)[C@H](N)Cc1ccc(O)cc1)C(=O)N[C@@H](Cc1ccccc1)C(N)=O,"5-hydroxytryptamine receptor 1D (HTR1D, Homo sapiens, UniProt P28221)","ligand displacement, radioligand",,10 µM,,inhibition,10.4%
IPCRDVVL,"HLA class I histocompatibility antigen, B alpha chain allele B*51:01",peptide-MHC binding,peptide,concentration not given,,binding,inactive
C[C@@]12N[C@@H](Cc3ccccc31)c1ccccc12,mouse MPNST tumor cells,"high-content immunofluorescence imaging, refers to: nuclear SOX9",,"10 µM, 12 h, mean of 2 replicates","reference: DMSO control, higher = more nuclear SOX9",nuclear SOX9 intensity,102 % of DMSO
FPSQQPYL,"HLA class I histocompatibility antigen, B alpha chain allele B*51:01",peptide-MHC binding,peptide,concentration not given,,binding,active
CCCCOCCOCCOCc1cc2c(cc1CCC)OCO2,HEK-293T,,VSV pseudotyped with VSV-G,"10 µM, 16 h",,pseudovirus infection,119%
